Results of several laboratories.
Lines come from different studies, so protocols differ. Values joined by “and” are separate records of one study, mostly repeats; a detail may differ. ± marks the error that the study gave.
Chain of UniProt P42336 (whole entry, unmodified, looked up): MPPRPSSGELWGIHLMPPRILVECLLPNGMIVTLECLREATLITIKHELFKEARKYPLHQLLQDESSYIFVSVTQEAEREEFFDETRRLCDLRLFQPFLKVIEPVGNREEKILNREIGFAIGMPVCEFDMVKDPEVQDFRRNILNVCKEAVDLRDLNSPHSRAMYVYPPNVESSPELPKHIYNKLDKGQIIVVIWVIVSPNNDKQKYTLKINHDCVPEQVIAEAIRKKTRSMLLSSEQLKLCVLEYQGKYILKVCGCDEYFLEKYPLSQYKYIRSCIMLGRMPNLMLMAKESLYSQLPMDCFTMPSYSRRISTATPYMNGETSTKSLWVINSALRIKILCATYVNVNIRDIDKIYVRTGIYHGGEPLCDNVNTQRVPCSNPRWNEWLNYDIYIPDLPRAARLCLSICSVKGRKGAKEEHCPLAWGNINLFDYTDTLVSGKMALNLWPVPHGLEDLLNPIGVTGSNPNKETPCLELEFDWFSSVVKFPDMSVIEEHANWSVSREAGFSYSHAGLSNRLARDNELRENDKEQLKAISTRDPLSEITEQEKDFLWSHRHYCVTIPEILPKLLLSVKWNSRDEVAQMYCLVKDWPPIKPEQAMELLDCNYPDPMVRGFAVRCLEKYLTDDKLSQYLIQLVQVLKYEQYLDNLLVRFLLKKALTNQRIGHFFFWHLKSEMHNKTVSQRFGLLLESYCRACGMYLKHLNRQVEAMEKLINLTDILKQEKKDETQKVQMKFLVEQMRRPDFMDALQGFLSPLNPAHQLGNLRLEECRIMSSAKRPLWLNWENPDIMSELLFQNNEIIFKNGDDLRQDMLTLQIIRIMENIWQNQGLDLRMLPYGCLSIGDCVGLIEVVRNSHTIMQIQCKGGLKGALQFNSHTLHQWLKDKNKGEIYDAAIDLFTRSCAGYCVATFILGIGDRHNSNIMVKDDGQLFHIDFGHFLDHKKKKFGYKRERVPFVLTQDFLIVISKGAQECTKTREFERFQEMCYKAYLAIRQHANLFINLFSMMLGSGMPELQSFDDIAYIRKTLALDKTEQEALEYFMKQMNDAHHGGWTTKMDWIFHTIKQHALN
Chain of UniProt Q6DWJ6 (whole entry, looked up): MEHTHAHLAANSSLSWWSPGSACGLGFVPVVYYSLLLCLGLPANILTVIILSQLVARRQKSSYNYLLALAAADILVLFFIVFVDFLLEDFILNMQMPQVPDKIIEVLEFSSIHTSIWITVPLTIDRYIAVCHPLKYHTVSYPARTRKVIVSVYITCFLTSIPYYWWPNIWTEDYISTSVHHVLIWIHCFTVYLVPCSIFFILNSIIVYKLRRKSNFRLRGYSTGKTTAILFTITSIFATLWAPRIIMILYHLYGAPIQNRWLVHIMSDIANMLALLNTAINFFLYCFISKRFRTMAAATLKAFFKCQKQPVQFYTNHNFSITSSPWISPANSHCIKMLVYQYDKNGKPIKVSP
Chain of UniProt Q9UM07 (whole entry, looked up): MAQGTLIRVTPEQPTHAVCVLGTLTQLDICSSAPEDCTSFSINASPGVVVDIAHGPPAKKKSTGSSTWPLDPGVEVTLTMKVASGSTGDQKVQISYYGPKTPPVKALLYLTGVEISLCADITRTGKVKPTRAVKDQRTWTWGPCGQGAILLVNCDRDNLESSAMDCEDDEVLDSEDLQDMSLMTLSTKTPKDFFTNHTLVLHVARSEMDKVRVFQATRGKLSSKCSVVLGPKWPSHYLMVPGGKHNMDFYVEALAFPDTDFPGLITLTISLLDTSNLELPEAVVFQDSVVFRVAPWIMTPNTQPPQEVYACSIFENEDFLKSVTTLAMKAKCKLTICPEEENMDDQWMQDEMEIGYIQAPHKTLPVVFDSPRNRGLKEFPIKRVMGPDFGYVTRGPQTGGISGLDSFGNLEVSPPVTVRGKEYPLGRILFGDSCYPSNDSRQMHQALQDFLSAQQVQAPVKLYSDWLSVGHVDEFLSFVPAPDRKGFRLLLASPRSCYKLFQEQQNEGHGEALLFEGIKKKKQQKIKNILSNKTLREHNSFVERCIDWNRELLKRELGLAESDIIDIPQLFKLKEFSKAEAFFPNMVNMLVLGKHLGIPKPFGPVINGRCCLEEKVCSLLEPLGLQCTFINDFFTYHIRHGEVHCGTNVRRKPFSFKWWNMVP
Chain of UniProt P0A988 (whole entry, unmodified, looked up): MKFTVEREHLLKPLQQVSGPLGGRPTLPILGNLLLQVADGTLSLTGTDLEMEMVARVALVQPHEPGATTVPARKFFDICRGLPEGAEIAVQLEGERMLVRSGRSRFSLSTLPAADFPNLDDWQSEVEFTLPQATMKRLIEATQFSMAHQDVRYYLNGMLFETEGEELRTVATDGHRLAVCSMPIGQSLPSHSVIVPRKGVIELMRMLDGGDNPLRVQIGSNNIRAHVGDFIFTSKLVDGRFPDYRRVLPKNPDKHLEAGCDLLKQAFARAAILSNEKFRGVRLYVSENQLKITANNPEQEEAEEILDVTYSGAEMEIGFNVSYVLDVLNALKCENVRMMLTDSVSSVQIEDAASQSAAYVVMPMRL
Chain of UniProt P53779 (whole entry, looked up): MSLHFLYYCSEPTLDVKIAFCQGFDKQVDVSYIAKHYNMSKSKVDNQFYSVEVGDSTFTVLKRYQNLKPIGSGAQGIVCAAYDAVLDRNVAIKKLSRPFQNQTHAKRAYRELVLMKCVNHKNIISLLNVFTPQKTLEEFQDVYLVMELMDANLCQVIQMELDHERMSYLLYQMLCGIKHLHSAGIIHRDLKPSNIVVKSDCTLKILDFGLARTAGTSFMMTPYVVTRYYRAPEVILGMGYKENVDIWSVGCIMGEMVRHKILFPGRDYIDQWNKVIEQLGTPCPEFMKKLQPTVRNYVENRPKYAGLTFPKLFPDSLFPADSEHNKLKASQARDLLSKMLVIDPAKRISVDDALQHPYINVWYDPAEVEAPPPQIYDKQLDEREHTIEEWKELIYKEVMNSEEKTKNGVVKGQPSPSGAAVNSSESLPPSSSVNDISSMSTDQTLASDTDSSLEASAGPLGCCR
Chain of UniProt Q9P286 (whole entry, looked up): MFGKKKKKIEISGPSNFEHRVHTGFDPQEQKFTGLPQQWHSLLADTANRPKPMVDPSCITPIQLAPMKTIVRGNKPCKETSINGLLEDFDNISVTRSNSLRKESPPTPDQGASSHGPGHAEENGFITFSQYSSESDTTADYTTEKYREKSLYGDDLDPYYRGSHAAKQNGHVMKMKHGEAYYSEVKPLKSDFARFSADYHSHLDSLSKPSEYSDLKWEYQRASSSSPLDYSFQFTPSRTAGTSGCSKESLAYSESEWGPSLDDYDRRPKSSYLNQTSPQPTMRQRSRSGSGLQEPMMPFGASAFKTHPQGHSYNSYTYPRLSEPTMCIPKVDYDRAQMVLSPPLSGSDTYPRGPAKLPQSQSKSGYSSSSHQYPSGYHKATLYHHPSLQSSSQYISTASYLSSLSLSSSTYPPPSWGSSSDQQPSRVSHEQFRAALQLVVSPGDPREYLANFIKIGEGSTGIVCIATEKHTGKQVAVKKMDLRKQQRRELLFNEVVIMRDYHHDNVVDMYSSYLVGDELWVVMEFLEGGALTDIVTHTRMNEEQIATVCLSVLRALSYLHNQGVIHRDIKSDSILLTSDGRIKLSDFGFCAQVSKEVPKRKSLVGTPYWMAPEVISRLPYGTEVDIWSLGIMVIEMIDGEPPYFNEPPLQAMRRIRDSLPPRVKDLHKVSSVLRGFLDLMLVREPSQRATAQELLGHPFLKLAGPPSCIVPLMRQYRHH
Chain of UniProt P28222 (whole entry, looked up): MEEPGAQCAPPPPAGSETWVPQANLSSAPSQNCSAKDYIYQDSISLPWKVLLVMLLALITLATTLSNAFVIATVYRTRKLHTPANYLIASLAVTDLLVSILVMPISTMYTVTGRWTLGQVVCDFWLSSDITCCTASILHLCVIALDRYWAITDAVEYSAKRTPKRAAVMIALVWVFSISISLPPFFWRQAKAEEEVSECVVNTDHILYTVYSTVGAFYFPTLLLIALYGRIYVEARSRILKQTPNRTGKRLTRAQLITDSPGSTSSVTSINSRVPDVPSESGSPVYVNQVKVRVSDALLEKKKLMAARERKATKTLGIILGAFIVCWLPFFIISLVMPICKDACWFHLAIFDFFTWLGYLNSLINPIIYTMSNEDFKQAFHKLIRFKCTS
Chain of UniProt Q8R146 (whole entry, looked up): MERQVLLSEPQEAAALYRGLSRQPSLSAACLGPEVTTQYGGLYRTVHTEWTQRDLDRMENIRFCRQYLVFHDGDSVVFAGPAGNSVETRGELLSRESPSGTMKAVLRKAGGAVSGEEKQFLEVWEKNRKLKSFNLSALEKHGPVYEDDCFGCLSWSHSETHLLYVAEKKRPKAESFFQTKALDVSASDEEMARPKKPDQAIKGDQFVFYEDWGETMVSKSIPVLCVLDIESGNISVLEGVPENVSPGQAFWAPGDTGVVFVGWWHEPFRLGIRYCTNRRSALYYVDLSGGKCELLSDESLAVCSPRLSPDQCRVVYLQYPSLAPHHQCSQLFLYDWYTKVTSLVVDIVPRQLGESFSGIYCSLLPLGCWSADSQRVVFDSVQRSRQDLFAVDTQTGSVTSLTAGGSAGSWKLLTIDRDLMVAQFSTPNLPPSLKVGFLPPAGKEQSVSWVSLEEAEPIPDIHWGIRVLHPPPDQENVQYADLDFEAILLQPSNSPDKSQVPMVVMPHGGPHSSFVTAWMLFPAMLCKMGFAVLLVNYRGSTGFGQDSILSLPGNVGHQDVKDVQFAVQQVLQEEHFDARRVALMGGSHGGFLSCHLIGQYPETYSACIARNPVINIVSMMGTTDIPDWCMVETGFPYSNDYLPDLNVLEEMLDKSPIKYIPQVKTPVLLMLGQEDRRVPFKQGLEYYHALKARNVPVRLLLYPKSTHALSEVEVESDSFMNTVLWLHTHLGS

| Compound | target | assay | test system | setting | scale | endpoint | value |
| --- | --- | --- | --- | --- | --- | --- | --- |
| CC(C)CC(O)(CC(C)C)c1cn(C(=O)N2CCCC2)nn1 | Acylamino-acid-releasing enzyme (Apeh, Mus musculus, UniProt Q8R146) | probe labelling, inhibitor, competitive ABPP-SILAC | mouse T cells | concentration not given, 4 h, single peptide | reference: treated over DMSO cells, lower = stronger inhibition | SILAC activity ratio | 0 |
| CS(C)(=O)=Nc1ccc(-c2ccc(-c3nc4cc(O[C@@H]5CO[C@H]6[C@@H]5OC[C@H]6O)[nH]c4cc3F)cc2)cc1 | PAK5 (Homo sapiens, UniProt Q9P286) | enzyme activity, inhibitor |  | 10 µM |  | inhibition | 9% |
| C=CC(=O)NC[C@H](NC(=O)[C@H](CC1CCCCC1)NC(=O)[C@H](CCC(N)=O)NC(C)=O)C(=O)N[C@@H](CC(C)C)C(=O)N[C@@H](Cc1ccccc1)C(=O)O | Beta sliding clamp (Escherichia coli, UniProt P0A988) | binding, isothermal titration calorimetry |  | pH 7.4, 37 °C |  | ΔG | -37.2 kJ/mol |
| CCN(N=Cc1cnc2ccc(Br)cn12)S(=O)(=O)c1cc([N+](=O)[O-])ccc1C | PIK3CA (Homo sapiens, UniProt P42336, I771A) | luminescence |  |  | reference: mutant over wild type | IC50 fold change | 5.5 and 6 |
| CC(C)[C@H]1NC(=O)C[C@H]2/C=C/CCSSC[C@@H](NC1=O)C(=O)N[C@H](Cc1cccc3ccccc13)C(=O)NCC(=O)O2 | MAPK10 (Homo sapiens, UniProt P53779) | enzyme activity, inhibitor |  | 10 µM |  | inhibition | 0.8% |
| CCOC(=O)[C@@H]1Cc2c(cc([N+](=O)[O-])cc2[N+](=O)[O-])[C@H](O)[C@]12C(=O)Nc1ccc(Br)cc12 | MKNK1 (Homo sapiens, UniProt Q9BUB5) | binding, competition with immobilised ligand |  | 0.1 µM |  | remaining binding | 94% |
| N[C@H](C(=O)N1CCCC1)C1CCN(c2nccc3c(-c4ncc(Cl)cc4Cl)cccc23)CC1 | PADI4 (Homo sapiens, UniProt Q9UM07) | enzyme activity |  | 0.006291 µM, together with: Ca2+ 0.25 mM |  | kcat | 0.845 s⁻¹ and 0.837 s⁻¹ |
| CN(C)[C@H]1C[C@@]23CC[C@@]4(O2)C(=CC[C@]2(C)[C@@H](c5ccc6ccncc6c5)CC[C@H]24)C=C3[C@@H](O)[C@@H]1O | PIK3CG (Homo sapiens, UniProt P48736) | ATP probe labelling, inhibitor, KiNativ profiling |  | 0.1 µM |  | inhibition | -12.4% |
| Cn1nc(CCN)c(=O)c2c(=O)[nH]c(N)nc21 | folP (Bacteria, UniProt P0AC13) | CETSA HiBiT | Escherichia coli, whole cells | concentration not given | reference: whole cell over lysate ΔTm | target engagement efficiency | 8.5% |
| O=C(O)c1cccc(CP(=O)(O)O)n1 | VIM-2 (Escherichia coli, UniProt Q5U7L7) | inhibitor |  | together with: nitrocefin |  | dissociation half-life | 7.7 ± 0.3 min |
| Cc1cc(-c2ccc3ccccc3c2)nnc1NCCN1CCN(C)CC1 | HTR1B (Homo sapiens, UniProt P28222) | antagonist |  | concentration not given |  | antagonist activity | negative |
| COc1ccc2c(c1NC(=O)OCc1ccc(NC(=O)C(CCCNC(N)=O)NC(=O)C(NC(=O)CCCCCN3C(=O)CC(SCC(NC(C)=O)C(=O)O)C3=O)C(C)C)cc1)CCC=C2c1cc(OC)c(OC)c(OC)c1 (mixture of isomers) | Cathepsin B (CTSB, Homo sapiens, UniProt P07858) | enzyme activity, substrate, HPLC |  | 1.5 h, pH 5.5, 37 °C, human enzyme, together with: CTSB 200 nM |  | payload release | 44% |
| O=C1NC(=O)c2c1c1cc(F)c[n+]3c1c1c2c2cc(O)ccc2[n]1[Ru-4]312([N]=C=S)[S+]3CC[S+]1CC[S+]2CC3 (centres unmarked) | RET (Homo sapiens, UniProt P07949, V804M) | enzyme activity |  | 100 nM, human enzyme, together with: 10 µM ATP | reference: untreated | remaining activity | 5% |
| CC[C@H](C)[C@H](NC(=O)[C@H](CCCNC(=N)N)NC(=O)[C@H](CCCNC(=N)N)NC(=O)[C@H](CC(C)C)NC(=O)[C@H](Cc1ccccc1)NC(=O)CNC(=O)CNC(=O)[C@@H](N)Cc1ccc(O)cc1)C(=O)N[C@@H](CCCNC(=N)N)C(=O)N1CCC[C@H]1C(=O)N[C@@H](CCCCN)C(=O)N[C@@H](CC(C)C)C(=O)N[C@@H](CCCCN)C(=O)O | GPR139 (Homo sapiens, UniProt Q6DWJ6) | GαsS activation, agonist, BRET | HEK293T/17 | 40 µM |  | Emax | 5.35% and 6.85% |

Excerpt of the above:
| Compound | target | assay | test system | setting | scale | endpoint | value |
| --- | --- | --- | --- | --- | --- | --- | --- |
| CC[C@H](C)[C@H](NC(=O)[C@H](CCCNC(=N)N)NC(=O)[C@H](CCCNC(=N)N)NC(=O)[C@H](CC(C)C)NC(=O)[C@H](Cc1ccccc1)NC(=O)CNC(=O)CNC(=O)[C@@H](N)Cc1ccc(O)cc1)C(=O)N[C@@H](CCCNC(=N)N)C(=O)N1CCC[C@H]1C(=O)N[C@@H](CCCCN)C(=O)N[C@@H](CC(C)C)C(=O)N[C@@H](CCCCN)C(=O)O | GPR139 (Homo sapiens, UniProt Q6DWJ6) | GαsS activation, agonist, BRET | HEK293T/17 | 40 µM |  | Emax | 5.35% and 6.85% |
| CCN(N=Cc1cnc2ccc(Br)cn12)S(=O)(=O)c1cc([N+](=O)[O-])ccc1C | PIK3CA (Homo sapiens, UniProt P42336, I771A) | luminescence |  |  | reference: mutant over wild type | IC50 fold change | 5.5 and 6 |
